Measured values collected from several papers.
Each numbered part is a random draw from the data of one study; scales do not carry over between parts. Several values in a cell are separate wells, animals, samples, runs or records.

Study 1 — method: RNAcompete; molecule type: RNA; sample: in vitro; concentration: 20 nM; notes: 7-mer, probes averaged, single round; relative to: mean of 7-mers; reading: higher = stronger binding
Target: PABPC1L2, full length, GST fusion (mouse, UniProt A0ABA7IW68)
Target sequence (chain): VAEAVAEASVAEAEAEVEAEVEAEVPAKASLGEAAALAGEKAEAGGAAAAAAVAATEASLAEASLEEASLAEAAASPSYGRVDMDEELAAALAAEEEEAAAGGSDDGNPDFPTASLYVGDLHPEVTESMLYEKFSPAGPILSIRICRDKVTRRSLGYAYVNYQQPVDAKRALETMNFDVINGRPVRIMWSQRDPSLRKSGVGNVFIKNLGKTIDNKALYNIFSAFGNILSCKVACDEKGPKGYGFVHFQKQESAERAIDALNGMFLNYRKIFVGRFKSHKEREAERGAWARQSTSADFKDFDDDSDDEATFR
Oligonucleotide	7-mer Z-score
GAGCAGG	0.0623
UACCGCU	-0.354
GGGGAAC	0.131
AUCGUUC	-0.418
CUUUGUG	-0.452
AGGUGGG	0.428
CCCCCGC	-0.57
GAGUAAG	-0.151

Study 2 — cell line: HEK-293T/ACE2; concentration: 10 µM; time: 16 h; relative to: vehicle
SMILES	viability
CC1(C)O[C@@H]2[C@@H](CO[C@@]3(COS(N)(=O)=O)OC(C)(C)O[C@@H]23)O1	101%
Cc1nc(Nc2ncc(C(=O)Nc3c(C)cccc3Cl)s2)cc(N2CCN(CCO)CC2)n1	105%
Cc1nnc(NS(=O)(=O)c2ccc(N)cc2)s1	102%

Study 3 — method: RNA Bind-n-Seq; molecule type: RNA; sample: in vitro; concentration: not given; relative to: input RNA pool; reading: higher = stronger binding
Target: RING finger protein unkempt homolog, zinc fingers 1-6, GST-SBP tag (UNK, Homo sapiens, UniProt Q9C0B0, residues 30-357)
Notes: RNA with constant flanks, human and mouse sites, ends assumed
Shared flanks, not repeated: GGGAGUUCUACAGUCCGACGAUC … CAACAGAGGAUUGAGCAUCA
Residues (chain): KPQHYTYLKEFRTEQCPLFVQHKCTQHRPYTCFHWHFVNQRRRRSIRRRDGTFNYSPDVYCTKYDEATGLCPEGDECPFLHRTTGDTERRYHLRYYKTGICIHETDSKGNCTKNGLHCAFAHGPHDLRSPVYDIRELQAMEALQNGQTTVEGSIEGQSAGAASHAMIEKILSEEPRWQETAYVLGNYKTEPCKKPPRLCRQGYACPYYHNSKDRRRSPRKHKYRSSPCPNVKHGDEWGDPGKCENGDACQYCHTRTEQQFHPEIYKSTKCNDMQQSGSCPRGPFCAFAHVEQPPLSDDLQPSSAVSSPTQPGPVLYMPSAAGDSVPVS
Oligonucleotide	bound/input enrichment [ratio]
ACUGCGAGAGGCGGCGGCGGAGGCAGUAGUUGCACCGGCAGAGGCGGCCGCUGGCAGCGGUUGAGGCGGCGGUCCAACGCGUGCUCUCUGGGCGGGGUGCGGCGGGGGAUGUGCCUGCUC	0.0607
UUUGAAGAAUAUGUAAUUGUUGGUUUAAACUGGCUUCAAGCAGUAAUAAAAAGGUGGUGGUCAGAACUCUCAUCUACGUCAGAAAUUAUAAGUGAUGGAAAUAUUAAGAUUUUAAAGCAA	0.802
CAGAUGCUGGUGACCACACCAGAAAAAUGGGAUGUAGUAACAAGAAAGAGUGUUGGGGAUGUUGCUCUUUCCCAAAUCGUAAAACUCCUGAUUCUUGACGAGGUGCACUUGCUGCAUGAA	0.192
CACGCUGGUGCCCCGGAAGACGCCUCGCAAGAGGAGGAAUCUGUUCUCUGGACGAUAUUAAUUAGCAUUUUGAAACUGGUACUUGAAAUUCUCUUUUGAGUCGUUGACCACACUCUGGGA	5.5
UUUUUAAAAAAAUAAAAUAAAACAUAAAUAUUACUCUUCCAUAUUCCUUCUGCCUAUAUUUAGUAAUUAAUUUAUUUUAUGAUAAAGUUCUAAUGAAAUGUAAAUUGUUUCAGCAAAAUU	4.41
UUAAAGGCAGAAAACCUGCUCUUGGAUGCUGAUAUGAACAUCAAGAUUGCAGACUUUGGCUUCAGCAAUGAAUUCACCUUUGGGAACAAGCUGGACACCUUCUGUGGCAGUCCCCCUUAU	0.0608
UUAAAGCUGGUUGGGAAUUAUGUAAGAAAUAUACGGCAUUAUGAAAUUACAAAACAAGAUAUUAAAGUGGCAAUGUGUGCUGACAAGGUAUUGAUGGAUAUGUUUCAUCAAGAUGUAGAA	1
CGCAGAAGGCGUGCGAUUCUUCCAGCAGAUAUGAAGAUUAUUCAGAGCUGGGAGAGCUUCCCCCACGAUCUCCUUUAGAACCAGUUUGUGAAGAUGGGCCCUUUGGCCCCCCACCAGAGG	0.578

Study 4 — method: protein-binding microarray; molecule type: double-stranded DNA, one strand shown; sample: in vitro; concentration: not given; reading: higher = stronger binding
Target: Hepatocyte nuclear factor 3-beta, forkhead domain (FOXA2, Homo sapiens, UniProt Q9Y261, residues 142-269)
Notes: k-mer, scored over probes, only values ≥0.25
Residues (chain): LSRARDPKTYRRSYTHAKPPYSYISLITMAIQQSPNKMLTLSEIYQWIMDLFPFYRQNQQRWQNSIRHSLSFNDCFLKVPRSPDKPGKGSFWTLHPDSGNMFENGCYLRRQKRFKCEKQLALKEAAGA
Oligonucleotide	E-score
TACAGAAA	0.265
AATGAATG	0.258
CATAATAG	0.258
ACAAATTA	0.276
AACACATC	0.255
TGATTACA	0.344
ATATTTCG	0.296
GTAATTCA	0.276

Study 5 — organism: SARS-CoV-2; read-out: cytopathic effect; cell line: Vero E6; concentration: 10 µM
SMILES	inhibition
Oc1cccc(-c2c3nc(c(-c4cccc(O)c4)c4ccc([nH]4)c(-c4cccc(O)c4)c4nc(c(-c5cccc(O)c5)c5ccc2[nH]5)CC4)C=C3)c1	4.5%
Cc1c(OCC(F)(F)F)ccnc1C[S+]([O-])c1nc2ccccc2[nH]1 (centres unmarked)	1.7% and -1.6%
O=C(O)c1ccc(N2C(=O)/C(=C\c3ccc(-c4ccc([N+](=O)[O-])cc4)o3)C=C2c2ccccc2)cc1	43.9%
C[n+]1c2cc(N)ccc2cc2ccc(N)cc21.Nc1ccc2cc3ccc(N)cc3nc2c1	-26.7%

Study 6 — mode: inhibitor; concentration: 20 µM
Target: Replicase polyprotein 1ab, nsp13 helicase (rep, Severe acute respiratory syndrome coronavirus 2, UniProt P0DTD1)
SMILES	inhibition
NCCCCN(Cc1nc2ccccc2[nH]1)[C@H]1CCCc2cccnc21	-3.14%
Oc1c(Br)cc(Br)c2cccnc12	-4.33%
N#Cc1ccc(COC[C@H]2O[C@@H](n3c(NCc4ccc(Cl)c(Cl)c4)nc4c(N)ncnc43)[C@H](O)[C@@H]2O)cc1	-0.06%
CCOC(=O)C1=C(C)NC2=C(C(=O)CC(C)(C)C2)C1c1ccc(-c2ccccc2)cc1 (centres unmarked)	-0.92%
CCN(CC)CCOC(=O)C(c1ccccc1)c1ccccc1	5.43%
CC(C)N(CC[C@H](c1ccccc1)c1cc(CO)ccc1O)C(C)C	5.52%
CN1CCC(c2c[nH]c3ccc(O)cc23)CC1	-2.15%
CCC1=C(C)CN(C(=O)NCCc2ccc(S(=O)(=O)NC(=O)N[C@H]3CC[C@H](C)CC3)cc2)C1=O	8.61%
NC(=O)[C@@H]1CC[C@@H]2CN1C(=O)N2OS(=O)(=O)O	7.74%
COc1ccccc1OC(=O)c1ccccc1OC(C)=O	-0.21%
CCCCCCCCCCCCCCCCCCCCCC(=O)O	-9.34%
Cc1[nH]c(/C=C2\C(=O)Nc3ccc(S(=O)(=O)Cc4c(Cl)cccc4Cl)cc32)c(C)c1C(=O)N1CCC[C@@H]1CN1CCCC1	6.5%
N[C@@H](Cn1ccc(=O)c(O)c1)C(=O)O	9.91%
CCCCC(=O)O[C@]1(C(=O)CO)[C@@H](C)C[C@H]2[C@@H]3CCC4=CC(=O)C=C[C@]4(C)[C@@]3(F)[C@@H](O)C[C@@]21C	1.05%
Cc1cc(CCC[C@H](CC(=O)NO)C(=O)N[C@H](C(=O)N[C@H](C)c2ccccc2)C(C)(C)C)ccc1-c1ccccc1	6.06%
Cn1cc(C[C@@H](N)C(=O)O)c2ccccc21	11.8%
CC(C)c1c(NC(=O)Nc2ccc(Cl)cc2)c(=O)n(-c2ccccc2)n1C	11.2%
O=C(O)C1=CCCNC1	8.76%
COc1cc2nc(N3CCN(C(=O)C(C)OC)CC3)nc(N)c2cc1OC (centres unmarked)	0.52%
c1ccc2c(c1)[I+]c1ccccc1-2	2.64%
Cc1ccnc2c1NC(=O)c1cccnc1N2C1CC1	5.68%
CCc1cc(Cl)c(OC)c(C(=O)NC[C@@H]2CCCN2CC)c1O	6.09%
Cc1ncc([N+](=O)[O-])n1CC(O)CCl (centres unmarked)	-4.82%
OB1OCc2cc(F)ccc21	-8.28%
C[C@H]1[C@H](NC(=O)/C(=N\OC(C)(C)C(=O)O)c2csc(N)n2)C(=O)N1S(=O)(=O)O	6.85%
